Assay results pooled from the literature.
Each line is one published result; not all experiments were run side by side. Several values in a cell are separate wells, animals, samples, runs or records. Numbers after ± are the reported error.
U2AF2: U2AF2 148-342 (Homo sapiens, UniProt P26368)
Chain of UniProt P26368 (whole entry, looked up): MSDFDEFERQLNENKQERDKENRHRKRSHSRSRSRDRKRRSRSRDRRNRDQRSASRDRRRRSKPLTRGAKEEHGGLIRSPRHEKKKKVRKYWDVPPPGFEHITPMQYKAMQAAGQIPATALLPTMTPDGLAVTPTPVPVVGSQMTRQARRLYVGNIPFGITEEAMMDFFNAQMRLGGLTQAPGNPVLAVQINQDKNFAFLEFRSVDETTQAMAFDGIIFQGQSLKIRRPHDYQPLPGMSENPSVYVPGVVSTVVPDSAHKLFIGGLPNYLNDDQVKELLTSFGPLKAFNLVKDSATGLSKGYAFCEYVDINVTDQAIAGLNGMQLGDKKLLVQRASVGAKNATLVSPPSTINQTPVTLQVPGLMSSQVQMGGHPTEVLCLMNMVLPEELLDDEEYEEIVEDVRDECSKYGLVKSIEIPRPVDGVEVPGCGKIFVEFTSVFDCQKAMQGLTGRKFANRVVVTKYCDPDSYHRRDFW
B1: human IGHG3; sequence looked up; chain ASTKGPSVFPLAPCSRSTSGGTAALGCLVKDYFPEPVTVSWNSGALTSGVHTFPAVLQSSGLYSLSSVVTVPSSSLGTQTYTCNVNHKPSNTKVDKRVELKTPLGDTTHTCPRCPEPKSCDTPPPCPRCPEPKSCDTPPPCPRCPEPKSCDTPPPCPRCPAPELLGGPSVFLFPPKPKDTLMISRTPEVTCVVVDVSHEDPEVQFKWYVDGVEVHNAKTKPREEQYNSTFRVVSVLTVLHQDWLNGKEYKCKVSNKALPAPIEKTISKTKGQPREPQVYTLPPSREEMTKNQVSLTCLVKGFYPSDIAVEWESSGQPENNYNTTPPMLDSDGSFFLYSKLTVDKSRWQQGNIFSCSVMHEALHNRFTQKSLSLSPELQLEESCAEAQDGELDGLWTTITIFITLFLLSVCYSATVTFFKVKWIFSSVVDLKQTIIPDYRNMIGQGA
B2: human IGBP1; sequence looked up; chain AAEDELQLPRLPELFETGRQLLDEVEVATEPAGSRIVQEKVFKGLDLLEKAAEMLSQLDLFSRNEDLEEIASTDLKYLLVPAFQGALTMKQVNPSKRLDHLQRAREHFINYLTQCHCYHVAEFELPKTMNNSAENHTANSSMAYPSLVAMASQRQAKIQRYKQKKELEHRLSAMKSAVESGQADDERVREYYLLHLQRWIDISLEEIESIDQEIKILRERDSSREASTSNSSRQERPPVKPFILTRNMAQAKVFGAGYPSLPTMTVSDWYEQHRKYGALPDQGIAKAAPEEFRKAAQQQEEQEEKEEEDDEQTLHRAREWDDWKDTHPRGYGNRQNMG
B3: human HSPA4; sequence looked up; chain MSVVGIDLGFQSCYVAVARAGGIETIANEYSDRCTPACISFGPKNRSIGAAAKSQVISNAKNTVQGFKRFHGRAFSDPFVEAEKSNLAYDIVQLPTGLTGIKVTYMEEERNFTTEQVTAMLLSKLKETAESVLKKPVVDCVVSVPCFYTDAERRSVMDATQIAGLNCLRLMNETTAVALAYGIYKQDLPALEEKPRNVVFVDMGHSAYQVSVCAFNRGKLKVLATAFDTTLGGRKFDEVLVNHFCEEFGKKYKLDIKSKIRALLRLSQECEKLKKLMSANASDLPLSIECFMNDVDVSGTMNRGKFLEMCNDLLARVEPPLRSVLEQTKLKKEDIYAVEIVGGATRIPAVKEKISKFFGKELSTTLNADEAVTRGCALQCAILSPAFKVREFSITDVVPYPISLRWNSPAEEGSSDCEVFSKNHAAPFSKVLTFYRKEPFTLEAYYSSPQDLPYPDPAIAQFSVQKVTPQSDGSSSKVKVKVRVNVHGIFSVSSASLVEVHKSEENEEPMETDQNAKEEEKMQVDQEEPHVEEQQQQTPAENKAESEEMETSQAGSKDKKMDQPPQAKKAKVKTSTVDLPIENQLLWQIDREMLNLYIENEGKMIMQDKLEKERNDAKNAVEEYVYEMRDKLSGEYEKFVSEDDRNSFTLKLEDTENWLYEDGEDQPKQVYVDKLAELKNLGQPIKIRFQESEERPKLFEELGKQIQQYMKIISSFKNKEDQYDHLDAADMTKVEKSTNEAMEWMNNKLNLQNKQSLTMDPVVKSKEIEAKIKELTSTCSPIISKPKPKVEPPKEEQKNAEQNGPVDGQGDNPGPQAAEQGTDTAVPSDSDKKLPEMDID
B4: PRPF19 (human); sequence looked up; chain SLICSISNEVPEHPCVSPVSNHVYERRLIEKYIAENGTDPINNQPLSEEQLIDIKVAHPIRPKPPSATSIPAILKALQDEWDAVMLHSFTLRQQLQTTRQELSHALYQHDAACRVIARLTKEVTAAREALATLKPQAGLIVPQAVPSSQPSVVGAGEPMDLGELVGMTPEIIQKLQDKATVLTTERKKRGKTVPEELVKPEELSKYRQVASHVGLHSASIPGILALDLCPSDTNKILTGGADKNVVVFDKSSEQILATLKGHTKKVTSVVFHPSQDLVFSASPDATIRIWSVPNASCVQVVRAHESAVTGLSLHATGDYLLSSSDDQYWAFSDIQTGRVLTKVTDETSGCSLTCAQFHPDGLIFGTGTMDSQIKIWDLKERTNVANFPGHSGPITSIAFSENGYYLATAADDSSVKLWDLRKLKNFKTLQLDNNFEVKSLIFDQSGTYLALGGTDVQIYICKQWTEILHFTEHSGLTTGVAFGHHAKFIASTGMDRSLKFYSL

proteasome subunit beta-1 (human)
log2 fold change (CYB5R4 knockout human cells; PP4 interaction, 3xFLAG-PP4C IP-MS; concentration not given; baseline: CYB5R4 KO over parental): 1.45

QGRWDHETIV
binding intensity (construct, MBP fusion, human SCRIB, PDZ 3-4; automated holdup; peptide, crude extract; concentration not given, corrected by standard peak, unit not given; baseline: biotin control resin, higher = stronger binding): 0.395

CTOP
retention time (RP-HPLC; HALO Peptide ES-C18 column; 25 µM, acetic acid/methanol, 10 min gradient): 7.68 min

TASPAKETSF
binding intensity (construct, MBP fusion, human SCRIB, PDZ 3-4; automated holdup; peptide, crude extract; concentration not given, uncorrected, unit not given; baseline: biotin control resin, higher = stronger binding): 0.717

semaglutide
body weight (DIO male Wistar rats; dose not given, 2 weeks): 615 ± 23 g

colistin
MIC (Klebsiella pneumoniae; clinical isolate RKI 544/13): 16 µg/mL

B1 (human IGHG3)
log2 fold change (CYB5R4 knockout human cells; PP4 interaction, 3xFLAG-PP4C IP-MS; concentration not given; baseline: CYB5R4 KO over parental): 3.24

Nisin
nucleoid area (Bacillus subtilis; ATCC 6633; concentration not given): 0.77 µm² and 0.88 µm² and 0.75 µm²

B2 (human IGBP1)
log2 fold change (CYB5R4 knockout human cells; PP4 interaction, 3xFLAG-PP4C IP-MS; concentration not given; baseline: CYB5R4 KO over parental): -0.28

CUUUCCAUU (ssRNA)
Kd (U2AF2; sequencing of bound RNA; RNA; motif only): 7.2 µM

B3 (human HSPA4)
log2 fold change (CYB5R4 knockout human cells; PP4 interaction, 3xFLAG-PP4C IP-MS; concentration not given; baseline: CYB5R4 KO over parental): -0.45

GAUUUUUCA (ssRNA)
Kd (U2AF2; sequencing of bound RNA; RNA; motif only): 0.46 µM

KPGKGSETVV
binding intensity (construct, MBP fusion, human SCRIB, PDZ 3-4; automated holdup; peptide, purified PDZ protein; concentration not given, unit not given; baseline: biotin control resin, higher = stronger binding): 0.0542

maraviroc
protein level (Western blot; HIV-infected mice, frontal cortex; i.p., 120 mg/kg twice daily, 3 weeks post infection; baseline: HIV-infected untreated mice, increase): 1.74 fold

QSARYRDTEL
binding intensity (construct, MBP fusion, human SCRIB, PDZ 3-4; automated holdup; peptide, crude extract; concentration not given, corrected by standard peak, unit not given; baseline: biotin control resin, higher = stronger binding): 0.402

B4 (PRPF19)
log2 fold change (CYB5R4 knockout human cells; PP6 interaction, 3xFLAG-PP6C IP-MS; concentration not given; baseline: CYB5R4 KO over parental): -0.25

cotadutide
metabolite level (metabolomics, item: hepatic alanine; ob/ob mice on AMLN diet, NASH model, liver; dose not given): 1.22 ± 0.07 scaled intensity

Peginesatide
Emax (UT7/EPO; phosphorylation, agonist, item: phospho-GSK-3β; 10 min; baseline: rHuEPO maximum): 96 ± 3%

A few entries again:
B3 (human HSPA4)
log2 fold change (CYB5R4 knockout human cells; PP4 interaction, 3xFLAG-PP4C IP-MS; concentration not given; baseline: CYB5R4 KO over parental): -0.45

GAUUUUUCA (ssRNA)
Kd (U2AF2; sequencing of bound RNA; RNA; motif only): 0.46 µM
